Experimental data of several laboratories.
± marks the error that the study gave.

Compound | cell line | effect on | technique | time | CC50
Cc1ccc(NC(=O)CN2CCCC3=CC4CC(CN5CCCCC45)C32)c(Cl)c1 (centres unmarked) | Huh-7 | cytotoxicity | – | – | > 267 µM
CC[C@H](C)[C@H](NC(=O)[C@H](CCCN)NC(=O)[C@H](CC(N)=O)NC(=O)[C@H](Cc1c[nH]c2ccccc12)NC(=O)[C@H](Cc1ccccc1)NC(=O)[C@H](CCCN)NC(=O)[C@H](CCCNC(=N)N)NC(=O)[C@H](CC(C)C)NC(=O)[C@H](Cc1c[nH]c2ccccc12)NC(=O)[C@H](CCCN)NC(=O)[C@H](CCCNC(=N)N)NC(=O)[C@H](CC(C)C)NC(=O)CNC(C)=O)C(=O)N[C@@H](CCCN)C(=O)N[C@@H](CCCNC(=N)N)C(N)=O | T cells | – | CCK-8 | 24 h | 20.5 µM
OC[C@H]1[C@@H](O)[C@@H](O)CN1Cc1ccc(I)cc1 | BJ | – | MTS | 72 h | > 200 µM
CCOc1cccc(NC(=O)CSc2cn(C(=O)OC(C)(C)C)c3ccccc23)c1 | A549 | cytotoxicity | CCK-8 | – | > 100 µM
COP(=O)(O)Oc1c2c(c(OP(=O)(O)OC)c3c1C1CC3c3cc4c(cc31)C1CC4c3ccccc31)C1CC2c2cc3c(cc21)C1CC3c2ccccc21 | Caco-2 | – | CellTiter-Glo | 2 days | 214 µM
CN(C)Cc1cc(Nc2c3ccc(Cl)cc3nc3ccc(Cl)cc23)cc(CN(C)C)c1O | U2OS-ACE2-GFP | – | – | 20 (unit not given) | > 50 µM
O=c1nc(NO)ccn1[C@@H]1O[C@H](CO)[C@@H](O)[C@H]1O | CEM | – | MTS | 4 days | 3.5 µM
CC[C@H](C)[C@H](NC(=O)[C@H](CCCN)NC(=O)[C@H](CC(N)=O)NC(=O)[C@H](CC(C)C)NC(=O)[C@H](Cc1ccccc1)NC(=O)[C@H](CCCN)NC(=O)[C@H](CCCNC(=N)N)NC(=O)[C@H](CC(C)C)NC(=O)[C@H](CC(C)C)NC(=O)[C@H](CCCN)NC(=O)[C@H](CCCNC(=N)N)NC(=O)[C@H](CC(C)C)NC(=O)CNC(C)=O)C(=O)N[C@@H](CCCN)C(=O)N[C@@H](CCCNC(=N)N)C(N)=O | T cells | – | CCK-8 | 24 h | 17.8 µM
CCCOP(=O)(O)Oc1c2c(c(OP(=O)(O)OCCC)c3c1C1CC3c3cc4c(cc31)C1CC4c3ccccc31)C1CC2c2cc3c(cc21)C1CC3c2ccccc21 | Caco-2 | – | CellTiter-Glo | 2 days | 226 µM
OC12CC3CC(C1)CC(NCc1cnc(N4CCCCC4)nc1)(C3)C2 | A549 | – | MTT | – | > 300 µM
O=C(CN1CCCC2=CC3CC(CN4CCCCC34)C21)Nc1cc(Br)ccc1F (centres unmarked) | Huh-7 | cytotoxicity | – | – | 222 µM
COc1ccc2cc1Oc1cc3c(cc1OC)CCN(C)C3Cc1ccc(cc1)Oc1c(O)c(OC)cc3c1C(C2)N(C)CC3 (centres unmarked) | Huh-7 | cell growth or viability | MTT | 24 h | 42.7 µM
Clc1ccc(CN2CCCC3=CC4CC(CN5CCCCC45)C32)c(Cl)c1 (centres unmarked) | Huh-7 | cytotoxicity | – | – | 138 µM
COc1ccc2nc3ccc(C(F)(F)F)cc3c(Nc3cc(CN4CCCC4)c(O)c(CN4CCCC4)c3)c2c1 | U2OS-ACE2-GFP | – | – | 20 (unit not given) | 4.36 µM
O=C(CNc1ccc(OC(F)(F)F)cc1)N1CCCC2=CC3CC(CN4CCCCC34)C21 (centres unmarked) | Huh-7 | cytotoxicity | – | – | 118 µM
CC(C)C[C@H](NC(=O)[C@H](Cc1c[nH]cn1)NC(=O)[C@H](Cc1c[nH]cn1)NC(=O)[C@H](CC(C)C)NC(=O)[C@H](Cc1ccccc1)NC(=O)CNC(=O)[C@H](CC(C)C)NC(=O)[C@@H](N)Cc1ccccc1)C(=O)N[C@@H](Cc1ccccc1)C(N)=O | Huh-7.5.1 | cell growth or viability | MTT | 48 h | > 500 µg/mL
CC(C)C1=CC2=CC[C@@H]3[C@](C)(CCC[C@@]3(C)C(=O)OCC#CCN3CCCC3)[C@H]2CC1 | MDCK | cytotoxicity | MTT | 48 h | 41 µM
CN(C)CCNC(=O)c1cc(-c2ccccc2)nc2ccccc12 | Vero C1008 | – | neutral red uptake | – | 116 µM
CCCCCCCCCC1O[C@@H]2C[C@H]3[C@@H]4CCC5=CC(=O)C=C[C@]5(C)[C@H]4[C@@H](O)C[C@]3(C)[C@]2(C(=O)CO)O1 (some centres unmarked) | human cells | – | – | – | > 30 µM
CC[C@H](C)[C@H](NC(=O)CNC(=O)[C@H](CO)NC(=O)[C@H](CC(C)C)NC(=O)[C@@H](N)Cc1ccccc1)C(=O)N[C@H](C(=O)NCC(=O)N[C@@H](CCSC)C(=O)N[C@@H](CC(C)C)C(=O)NCC(=O)N[C@@H](CCCCN)C(=O)N[C@@H](CC(C)C)C(=O)N[C@@H](Cc1ccccc1)C(N)=O)C(C)C | Swiss mouse peritoneal macrophages | – | MTT | – | 1000 ± 0.02 µM
CCCCCCCCOP(=O)(O)Oc1c2c(c(OP(=O)(O)OCCCCCCCC)c3c1C1CC3c3cc4c(cc31)C1CC4c3ccccc31)C1CC2c2cc3c(cc21)C1CC3c2ccccc21 | Caco-2 | – | CellTiter-Glo | 2 days | 123 µM

Compound | cell line | effect on | technique | time | CC50
CC(C)OC(=O)[C@H](C)N[P@](=O)(OC[C@H]1O[C@@H](n2ccc(=O)[nH]c2=O)[C@@](F)(Br)[C@@H]1O)Oc1ccccc1 | Huh-7 | – | MTS | 4 days | 72.4 µM
COc1ccc2nc3ccc(F)cc3c(Nc3ccc(O)c(CN4CCCC4)c3)c2c1 | U2OS-ACE2-GFP | – | – | 20 (unit not given) | 4.03 µM
Cc1ccc(NCC(=O)N2CCCC3=CC4CC(CN5CCCCC45)C32)cc1 (centres unmarked) | Huh-7 | cytotoxicity | – | – | > 267 µM
O=P(O)(OCCc1ccccc1)Oc1c2c(c(OP(=O)(O)OCCc3ccccc3)c3c1C1CC3c3cc4c(cc31)C1CC4c3ccccc31)C1CC2c2cc3c(cc21)C1CC3c2ccccc21 | Caco-2 | – | CellTiter-Glo | 2 days | 118 µM
Oc1c(CN2CCCC2)cc(Nc2c3ccc(Cl)cc3nc3ccc(Cl)cc23)cc1CN1CCCC1 | U2OS-ACE2-GFP | – | – | 20 (unit not given) | 8.86 µM
CC(C)OC(=O)C(C)NP(=O)(OCC1OC(n2ccc(=O)[nH]c2=O)C(F)(Cl)C1O)Oc1ccccc1 (centres unmarked) | CEM | – | MTS | 4 days | > 100 µM
Oc1cccc(O)c1-c1c2nc(c(-c3c(O)cccc3O)c3ccc([nH]3)c(-c3c(O)cccc3O)c3nc(c(-c4c(O)cccc4O)c4ccc1[nH]4)C=C3)C=C2 | HeLa S3 | cell proliferation | 3H-thymidine uptake | 2 days + 16 h | 20 µg/mL
O=C(CN1CCCC2=CC3CC(CN4CCCCC34)C21)Nc1cc(Br)ccc1Br (centres unmarked) | Huh-7 | cytotoxicity | – | – | 164 µM
O=C(CCN(CCC(=O)N[C@@H](Cc1c[nH]c2ccccc12)C(=O)O)C(=O)CCN(CCC(=O)N(CCC(=O)N[C@@H](Cc1c[nH]c2ccccc12)C(=O)O)CCC(=O)N[C@@H](Cc1c[nH]c2ccccc12)C(=O)O)C(=O)c1cc(C(=O)N(CCC(=O)N(CCC(=O)N[C@@H](Cc2c[nH]c3ccccc23)C(=O)O)CCC(=O)N[C@@H](Cc2c[nH]c3ccccc23)C(=O)O)CCC(=O)N(CCC(=O)N[C@@H](Cc2c[nH]c3ccccc23)C(=O)O)CCC(=O)N[C@@H](Cc2c[nH]c3ccccc23)C(=O)O)cc(C(=O)N(CCC(=O)N(CCC(=O)N[C@@H](Cc2c[nH]c3ccccc23)C(=O)O)CCC(=O)N[C@@H](Cc2c[nH]c3ccccc23)C(=O)O)CCC(=O)N(CCC(=O)N[C@@H](Cc2c[nH]c3ccccc23)C(=O)O)CCC(=O)N[C@@H](Cc2c[nH]c3ccccc23)C(=O)O)c1)N[C@@H](Cc1c[nH]c2ccccc12)C(=O)O | MT4 | – | – | – | > 100 µM
O=C1C(O)=C(Nc2ccccc2Cl)C(=O)c2ccccc21 | Calu-3 | cell growth or viability | – | 72 h | 77 µM
C=CCCCOP(=O)(O)Oc1c2c(c(OP(=O)(O)OCCCC=C)c3c1C1CC3c3cc4c(cc31)C1CC4c3ccccc31)C1CC2c2cc3c(cc21)C1CC3c2ccccc21 | Caco-2 | – | CellTiter-Glo | 2 days | 194 µM
CN(CC(=O)N1CCCC2=CC3CC(CN4CCCCC34)C21)c1ccc(Cl)cc1 (centres unmarked) | Huh-7 | cytotoxicity | – | – | 192 µM
CCCC[C@@H](O)C[C@@H](C)C[C@H](NC(=O)[C@@H]1C[C@H](C)CN1C(=O)/C=C/[C@@H](C)CC)C(=O)N[C@H](C(=O)NC(C)(C)C(=O)N[C@@H](CC(C)C)C(=O)N[C@@H](CC(C)C)C(=O)NC(C)(C)C(=O)NC(C)(C)C(=O)NCCC(=O)N[C@@H](C)CNC)[C@H](O)C(C)C | C2C12 | cell growth or viability | imaging | 72 h | > 1.5 µM
COc1ccc2nc3cc(Cl)ccc3c(Nc3ccc(O)c(CN4CCCC4)c3)c2n1 | U2OS-ACE2-GFP | – | – | 20 (unit not given) | 3.62 µM
CC[C@H](C)[C@@H]1NC(=O)[C@H](CCCCN)NC(=O)[C@H](CCCCN)NC(=O)[C@H](Cc2ccc(O)cc2)NC(=O)[C@H](CC(C)C)NC(=O)[C@@H]2CCCN2C(=O)[C@H](C)NC(=O)CNC(=O)CNC(=O)[C@H](CO)NC(=O)CNC(=O)CNC(=O)[C@H](CO)NC(=O)[C@H]([C@@H](C)O)NC(=O)[C@H](CC(C)C)NC(=O)[C@H](CC(C)C)NC(=O)[C@H](C)NC(=O)[C@H](Cc2c[nH]c3ccccc23)NC(=O)[C@H](Cc2ccc(O)cc2)NC(=O)[C@H](Cc2c[nH]cn2)NC(=O)[C@H](CCC(=O)O)NC(=O)[C@H](Cc2ccccc2)NC(=O)[C@H]([C@@H](C)O)NC(=O)[C@H](CC(C)C)NC(=O)[C@@H]2CCCN2C(=O)CNC(=O)CNC(=O)CSC[C@@H](C(N)=O)NC(=O)[C@H](CC(C)C)NC(=O)[C@H](CCCCN)NC(=O)[C@H](CCCCN)NC(=O)[C@H]([C@@H](C)CC)NC1=O | K562 | – | resazurin | 24 h | > 32 µM
COc1cccc(CN2CCCC3=CC4CC(CN5CCCCC45)C32)c1 (centres unmarked) | Huh-7 | cytotoxicity | – | – | > 267 µM
COc1ccc2nc3ncccc3c(Nc3ccc(O)c(CN4CCCC4)c3)c2c1 | U2OS-ACE2-GFP | – | – | 20 (unit not given) | 30.8 µM
CC[C@H](C)[C@H](NC(=O)[C@H](CCCCN)NC(=O)[C@H](CC(N)=O)NC(=O)[C@H](CC(C)C)NC(=O)[C@H](Cc1ccccc1)NC(=O)[C@H](CCCCN)NC(=O)[C@H](CCCCNC(=N)N)NC(=O)[C@H](CC(C)C)NC(=O)[C@H](CC(C)C)NC(=O)[C@H](CCCCN)NC(=O)[C@H](CCCCNC(=N)N)NC(=O)[C@H](CC(C)C)NC(=O)CNC(C)=O)C(=O)N[C@@H](CCCCN)C(=O)N[C@@H](CCCCNC(=N)N)C(N)=O | T cells | – | CCK-8 | 24 h | 12.4 µM
CCOP(=O)(O)Oc1c2c(c(OP(=O)(O)OCC)c3c1C1CC3c3cc4c(cc31)C1CC4c3ccccc31)C1CC2c2cc3c(cc21)C1CC3c2ccccc21 | Caco-2 | – | CellTiter-Glo | 2 days | > 300 µM
CCN(CC)CC#CCOC(=O)[C@]1(C)CCC[C@@]2(C)[C@H]1CC=C1C=C(C(C)C)CC[C@@H]12 | MDCK | cytotoxicity | MTT | 48 h | 24 µM

A few entries again:
Compound | cell line | effect on | technique | time | CC50
CC(C)C1=CC2=CC[C@@H]3[C@](C)(CCC[C@@]3(C)C(=O)OCC#CCN3CCCC3)[C@H]2CC1 | MDCK | cytotoxicity | MTT | 48 h | 41 µM
CCCOP(=O)(O)Oc1c2c(c(OP(=O)(O)OCCC)c3c1C1CC3c3cc4c(cc31)C1CC4c3ccccc31)C1CC2c2cc3c(cc21)C1CC3c2ccccc21 | Caco-2 | – | CellTiter-Glo | 2 days | 226 µM
Oc1cccc(O)c1-c1c2nc(c(-c3c(O)cccc3O)c3ccc([nH]3)c(-c3c(O)cccc3O)c3nc(c(-c4c(O)cccc4O)c4ccc1[nH]4)C=C3)C=C2 | HeLa S3 | cell proliferation | 3H-thymidine uptake | 2 days + 16 h | 20 µg/mL
